Measured values of several laboratories.
Values joined by “and” are separate records of one study, mostly repeats; a detail may differ. Numbers after ± are the reported error.

| SMILES | cell line | test | system | setting | scale | measurement | value |
| --- | --- | --- | --- | --- | --- | --- | --- |
| Cc1nc(NC(=O)N2CCC[C@H]2C(N)=O)sc1-c1ccnc(C(C)(C)C(F)(F)F)c1 | BFTC-909 | cell growth, CellTiter-Glo |  | 120 h |  | Hill coefficient GR curve | 0.742 |
| Cc1cc(Nc2ncc(Cl)c(Nc3ccccc3S(=O)(=O)C(C)C)n2)c(OC(C)C)cc1C1CCNCC1 | CLB-GE | phosphoproteomics LC-MS/MS, refers to: MAPK3 phosphorylation |  | 200 nM, 60 min | baseline: untreated | log2 fold change | -1.79 |
| Nc1n[nH]c2cc(I)ccc12 | Ba/F3 TEL-VEGFR1 | cell growth, CCK-8 |  |  |  | GI50 | 1.5 µM |
| Cn1cc(-c2ccc(-c3cncc(Cl)c3N3CCC4(CCNC4=O)CC3)cc2)cn1 | COLO 205 | gene expression, microarray, refers to: HOXC6 mRNA |  | concentration not given, 2 h | baseline: untreated cells | log2 fold change | 3.29 |
| O=C(/C=C/C=C/C=C/C1CCCCC1)NC1=C[C@@](O)(/C=C/C=C/C=C/C(=O)NC2=C(O)CCC2=O)[C@@H]2O[C@@H]2C1=O | SUM185PE | cell growth, CellTiter-Glo |  | 78 h |  | GI50 | 9.72 µM |
| CCc1cnc(N2CCC(c3nc(COc4ccc(-n5cnnn5)cc4)cs3)CC2)nc1 | HEK-293T | RNA-seq GSEA, refers to: HALLMARK_EPITHELIAL_MESENCHYMAL_TRANSITION |  | concentration not given | direction not given | normalized enrichment score | -0.915 |
| CCn1cc(-c2cc(Cn3ccoc3=N)cc3c2CCN([C@@H](C)c2cc(OC)ccn2)C3=O)c(C(F)(F)F)n1 | Calu-3 | cell growth, inhibitor |  | 120 h |  | EC50 | 0.000537 µM |
| CC(=O)Nc1cc(Oc2ccc3c(c2)CCN3C(=O)Nc2ccc(CN3CCN(C)CC3)c(C(F)(F)F)c2)ncn1 | MHHCALL4 cells | Western blot, refers to: JAK2, STAT5, STAT3 |  | concentration not given |  | phosphorylation | inhibited |
| Nc1ncnc2c1ncn2[C@@H]1O[C@H](CO)[C@@H](O)[C@H]1O | unstimulated human T cells |  |  | 10 µM, 72 h | higher = more viable cells | viability | 76.7 a.u. and 84.4 a.u. and 83.3 a.u. |
| C[C@H](Nc1ccc2c(c1)OCCn1cc(N3C(=O)OC[C@H]3C(F)F)nc1-2)C(N)=O | PC-3 | resazurin growth rate inhibition |  | 72 h |  | GR50 | > 5 µM |
| CSc1cc(Oc2ccnc3[nH]c(=O)cnc23)ccc1NC(=O)Nc1cc(C(C)(C)C)nn1-c1ccccc1 | patient-derived cell line clone B | RPPA, refers to: phosphorylated Rb | human | 1 µM, 4 h | baseline: DMSO | phospho ratio | 0.98 |
| O=C1c2c(O)ccc(O)c2C(=O)c2c(NCCNCCO)ccc(NCCNCCO)c21 | BT-16 | cell viability, MTT |  | 10 µM, 72 h |  | inhibition | 91.2% |
| Cc1[nH]c2ccccc2c1CCNCc1ccc(/C=C/C(=O)NO)cc1 | C13 | annexin V/PI flow cytometry |  | concentration not given, 48 h | baseline: control subtracted | late apoptotic cells | 2.6 ± 0.5% |
| COc1ccc2cc1Oc1ccc(cc1)C[C@H]1c3cc(c(OC)cc3CCN1C)Oc1c(O)c(OC)cc3c1[C@H](C2)N(C)CC3 | BT-16 | cell viability, MTT |  | 10 µM, 72 h |  | inhibition | 82.3% |
| O=C(C[C@@H](C(F)F)n1ccc(F)n1)N1CCC(O)(Cn2cnc3c(cnn3-c3ccc(F)cc3)c2=O)CC1 | CHP-212 parental | PI flow cytometry |  | 0.3 µM, 24 h |  | G1 phase cells | 71.7% |
| Cc1cccc(-c2[nH]c(CNc3ccccc3F)nc2-c2ccc3ncnn3c2)n1 | MM1.S pomalidomide-resistant | XTT |  | 1.25 µM |  | viability | 61% and 63% and 55% |
| CC(C)C[C@H](NC(=O)[C@H](Cc1ccccc1)NC(=O)c1cnccn1)B(O)O | BT-16 | cell viability, MTT |  | 10 µM, 72 h |  | inhibition | 94.6% |
| COc1cnc2cccc(N3CCc4c(cc(Cn5ccnc5C)cc4-c4cn(C)nc4C(F)(F)F)C3=O)c2c1 | LoVo | cell growth, inhibitor |  | 120 h |  | EC50 | > 30 µM |
| N#CSc1cc(SC#N)c(N)nc1N | BT-16 | cell viability, MTT |  | 10 µM, 72 h |  | inhibition | 88.7% |
| C=CC(=O)Nc1cc(Nc2ncc(C(=O)OC(C)C)c(-c3cn(C)c4ccccc34)n2)c(OC)cc1N(C)CCN(C)C | NCI-H2073 ASV knock-in | cell proliferation, CellTiter-Glo |  | 72 h, geometric mean |  | IC50 | 0.00503 µM |

For quick reference, copied from above:
| SMILES | cell line | test | system | setting | scale | measurement | value |
| --- | --- | --- | --- | --- | --- | --- | --- |
| Cc1cc(Nc2ncc(Cl)c(Nc3ccccc3S(=O)(=O)C(C)C)n2)c(OC(C)C)cc1C1CCNCC1 | CLB-GE | phosphoproteomics LC-MS/MS, refers to: MAPK3 phosphorylation |  | 200 nM, 60 min | baseline: untreated | log2 fold change | -1.79 |
